Results pooled from the literature.
Every numbered part comes from another study and shows a few of its results, in no order. Positions count from the first letter of the parent shown.

Block 1 — technique: protein-binding microarray; molecule type: double-stranded DNA, one strand shown; medium: in vitro; concentration: 0.8 µM; setting: whole 60-bp probe, no competitor; direction: higher = stronger binding
Target: Centromere-binding protein 1, full length, N-terminal tag (CBF1, Saccharomyces cerevisiae, UniProt P17106, residues 1-351)
Sequence of UniProt P17106 (whole entry, looked up): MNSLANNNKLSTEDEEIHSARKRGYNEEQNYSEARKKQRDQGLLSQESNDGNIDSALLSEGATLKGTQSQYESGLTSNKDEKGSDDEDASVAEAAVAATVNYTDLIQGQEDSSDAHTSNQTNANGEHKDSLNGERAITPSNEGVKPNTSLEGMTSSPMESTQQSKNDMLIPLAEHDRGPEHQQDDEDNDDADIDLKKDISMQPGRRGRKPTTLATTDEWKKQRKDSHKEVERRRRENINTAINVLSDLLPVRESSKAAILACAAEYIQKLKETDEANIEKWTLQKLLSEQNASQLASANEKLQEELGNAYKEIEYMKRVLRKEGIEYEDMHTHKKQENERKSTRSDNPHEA
For `CTATCCGTAATTAGCCACGAGGCCAGAAAGGAATTCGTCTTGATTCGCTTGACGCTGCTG`, the fluorescence intensity was 660 a.u.
`CTACAACCATGACGTGTTGTGTTTCTATTCAGCTTCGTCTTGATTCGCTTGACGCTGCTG` gave a fluorescence intensity of 538 a.u.
`CTATCTTCAATATCAGGTGAAATGTGTCTTGCCTTCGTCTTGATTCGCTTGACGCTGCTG` gave a fluorescence intensity of 669 a.u.
For `GAAGAAAACAAACTTGGCGTGACTTGGCGTGGATAGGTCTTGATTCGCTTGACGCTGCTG`, the fluorescence intensity was 712 a.u.
For `CCTAACTACTATATCCATGTGAGATAGCTTCGTACAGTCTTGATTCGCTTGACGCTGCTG`, the fluorescence intensity was 584 a.u.
`CTAAAAGTTTTGAATAACACGTGCCTTTGATTTTTCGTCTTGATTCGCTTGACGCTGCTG` gave a fluorescence intensity of 10800 a.u.
`TGTACGAAGCTATGACACGAGGATATAGTAGTTAGGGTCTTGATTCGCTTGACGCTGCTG` gave a fluorescence intensity of 664 a.u.
For `CTAGAGATAGATACATGCGTGGGTCAATTGCCTTTCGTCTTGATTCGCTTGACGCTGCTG`, the fluorescence intensity was 492 a.u.
The fluorescence intensity of `CTAAGTTAGCGTTGTCACCCGGGAAGAAGAGAATTCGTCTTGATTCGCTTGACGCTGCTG` is reported as 516 a.u.
`GAAAACCATGGGTGTCACCCTACTGCCGAGCCTTAGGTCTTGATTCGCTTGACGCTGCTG` gave a fluorescence intensity of 469 a.u.
The fluorescence intensity of `GAAACAAGCAGACACGTGGAGAAAAGCCAGGAGTAGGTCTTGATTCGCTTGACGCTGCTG` is reported as 3500 a.u.
`GAAGTTTTGGGTCATCATGCACTGCTGTTGGTATAGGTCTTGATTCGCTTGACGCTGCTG` gave a fluorescence intensity of 604 a.u.
`GAACCCTCAACTTAGCATGTGCTGATTACACTATAGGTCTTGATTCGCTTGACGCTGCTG` gave a fluorescence intensity of 795 a.u.
`CTAAAAGGTTTTTTACAGCTGATGATTGATGCATTCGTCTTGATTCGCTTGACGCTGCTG` has a fluorescence intensity of 530 a.u.
`CTATGAAGTACATAATGCATCATGAAGAAAGAATTCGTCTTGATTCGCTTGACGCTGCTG` gave a fluorescence intensity of 563 a.u.
The fluorescence intensity of `GAACATCACCGTTTTCACATGCTGTCTAGTGGCTAGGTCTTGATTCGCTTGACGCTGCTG` is reported as 595 a.u.
For `CTACGCTGCCCAATCCACGTGGAAAAATCCTGTTTCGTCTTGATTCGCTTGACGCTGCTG`, the fluorescence intensity was 2210 a.u.
The fluorescence intensity of `CTACGAATTGAAGTTCTGCTGATCTTGAACAATTTCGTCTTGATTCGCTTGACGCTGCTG` is reported as 552 a.u.
`GAAATCATTTGTGCTCGTGAGGCTATGAAATAATAGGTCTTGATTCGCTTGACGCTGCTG` has a fluorescence intensity of 611 a.u.

Block 2 — technique: protein binding microarray; molecule type: double-stranded DNA, one strand shown; medium: in vitro; concentration: not given; relative to: not given; direction: higher = stronger binding
Target: Histone acetyltransferase KAT6A, winged helix 2, GST fusion (KAT6A, Homo sapiens, UniProt Q92794, residues 85-181)
Setting: 8-mer, flanks averaged, mean of 2 arrays, mostly near background
Construct (chain): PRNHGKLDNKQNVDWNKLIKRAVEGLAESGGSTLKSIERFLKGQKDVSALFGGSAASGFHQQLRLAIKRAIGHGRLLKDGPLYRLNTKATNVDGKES
With `ACCAGCTC` the E-score was 0.127.
`AAGTTGCC` gave an E-score of 0.141.
With `CAAATGGG` the E-score was -0.0571.
With `CCTACATC` the E-score was -0.19.
`AGCTTCTC` has an E-score of -0.17.
For `CAGTCCCC`, the E-score was -0.0494.
The E-score of `AGACACGG` is reported as 0.109.
`AACAGCAG` has an E-score of 0.148.
For `CGCGTACC`, the E-score was 0.0584.
`AAGCTTTG` has an E-score of -0.114.
The E-score of `GTCAAGCA` is reported as 0.0979.
With `AACTCTAT` the E-score was -0.0122.
`CACGGCCG` gave an E-score of 0.162.
`GACCGCTC` gave an E-score of 0.0411.
`AAAACCCC` gave an E-score of -0.159.
`CTTCTTGA` has an E-score of 0.0348.
The E-score of `GCCGTCGC` is reported as 0.101.
`ATAAAGAT` gave an E-score of 0.16.
For `GGTGCGCA`, the E-score was 0.194.
`CTTTTCGA` has an E-score of 0.137.
With `CAGGCCAC` the E-score was 0.0616.

Block 3 — technique: protein-binding microarray; molecule type: double-stranded DNA, one strand shown; medium: in vitro; concentration: 250 nM; setting: 60-bp whole probe; together with: salmon DNA 0.4 mg/ml; relative to: random background probes; direction: higher = stronger binding; constant ends, left off below: GCCTAGCAC … GTCTTGATTCGCTTGACGCTGCTG
Target: Interferon regulatory factor 5, full length, phosphomimetic (IRF5, Homo sapiens, UniProt Q13568-2, residues 1-514, K96S/S451D/S453D/S456D/S462D)
With `TGTTTTTGCTTTCTTTTTGCGTGCTAG` the log fluorescence was 3.3 z-score.
For `TCAAGTCTCAATATTAGACTGTGCTAG`, the log fluorescence was 0.286 z-score.
With `ATGGGTATGGCCTATTTATATGTGCTA` the log fluorescence was -0.403 z-score.
The log fluorescence of `TCAGGTTTCTGGTTTATACTGTGCTAG` is reported as 1.97 z-score.
For `GACGATCTCAGCCTCGAGACGTGCTAG`, the log fluorescence was -0.215 z-score.
`TCAGCATACCATATCAGACTGTGCTAG` has a log fluorescence of 0.0587 z-score.
`CTAGGTATCGGGTTTCGGTTAGTGCTA` has a log fluorescence of 7.9 z-score.
`AGCTCCCTTTCTCTCTGTGAGTGCTAG` has a log fluorescence of 0.86 z-score.
`GACGGACTGCTTCTCCTAACGTGCTAG` gave a log fluorescence of -0.75 z-score.
With `GGCCGTCTGAGCTCCGTAGCGTGCTAG` the log fluorescence was -0.802 z-score.
For `GACGGTAGCGGGTTTCGGGACGTGCTA`, the log fluorescence was 1.81 z-score.
`CTAGAACTGGGGTTTCGATTAGTGCTA` gave a log fluorescence of 5.47 z-score.
`AATGTATAACGCCATTAGCTGTGCTAG` has a log fluorescence of 0.217 z-score.
`CAATATATATATTATATATTTGTGCTA` gave a log fluorescence of 0.97 z-score.
`CTAGGACTGGGGTATCGGTTAGTGCTA` has a log fluorescence of 1.84 z-score.
For `GACGATATCAGACTGGTGACGTGCTAG`, the log fluorescence was 0.396 z-score.
`GACGATATCCTTATCCTGACGTGCTAG` gave a log fluorescence of 0.114 z-score.
The log fluorescence of `CTTTATGTCCTGTCTACATGGGTGCTA` is reported as 0.142 z-score.
The log fluorescence of `TTAGGTCTCCGTATCCTTTAGTGCTAG` is reported as -0.141 z-score.

Block 4 — technique: DHFR PCA, deep sequencing; medium: yeast; together with: (+)-ABA 0.39 µM; relative to: wild-type fitted maximum; direction: higher = stronger binding
Target: ABI1, truncated, D143A, DHFR fusion (Arabidopsis thaliana)
Setting: methotrexate growth selection, single substitutions
Starting sequence: PYL1, truncated, DHFR fusion (Arabidopsis thaliana); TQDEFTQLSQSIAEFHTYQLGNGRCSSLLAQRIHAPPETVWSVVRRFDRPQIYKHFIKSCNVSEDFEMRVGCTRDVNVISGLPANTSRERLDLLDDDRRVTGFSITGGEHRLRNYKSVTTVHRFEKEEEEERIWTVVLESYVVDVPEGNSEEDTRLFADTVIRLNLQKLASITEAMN; partner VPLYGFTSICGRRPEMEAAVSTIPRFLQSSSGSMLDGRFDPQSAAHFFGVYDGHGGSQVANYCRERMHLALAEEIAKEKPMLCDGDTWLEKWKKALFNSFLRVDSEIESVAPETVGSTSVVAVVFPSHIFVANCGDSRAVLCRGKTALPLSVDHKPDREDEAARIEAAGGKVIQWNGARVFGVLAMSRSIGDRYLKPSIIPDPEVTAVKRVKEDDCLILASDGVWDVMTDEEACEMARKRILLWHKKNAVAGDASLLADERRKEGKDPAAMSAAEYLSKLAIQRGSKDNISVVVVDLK
Under “relative binding score”, `V100A` is recorded as 37.3%.
`S171R` — result for “relative binding score”: 54.9%.
Under “relative binding score”, `D97E` is recorded as 70.9%.
`T154Q`: “relative binding score” -34.7%.
`D3E`: “relative binding score” 55.5%.
`E152N` — result for “relative binding score”: 10.9%.
`K126Y`: “relative binding score” 44%.
`T1S` — result for “relative binding score”: 42.1%.
For `K116E`, “relative binding score” read -10.5%.
For `I79P`, “relative binding score” read -7.55%.
`G71L`: “relative binding score” -5.01%.
`N149I`: “relative binding score” 28.1%.
Under “relative binding score”, `V62M` is recorded as 10.7%.
`Y141Q`: “relative binding score” -20.4%.

A few entries again (block 1):
`CTACAACCATGACGTGTTGTGTTTCTATTCAGCTTCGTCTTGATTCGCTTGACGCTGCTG` gave a fluorescence intensity of 538 a.u.
`CTATCTTCAATATCAGGTGAAATGTGTCTTGCCTTCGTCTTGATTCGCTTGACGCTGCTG` gave a fluorescence intensity of 669 a.u.
For `GAAGAAAACAAACTTGGCGTGACTTGGCGTGGATAGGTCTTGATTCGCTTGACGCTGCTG`, the fluorescence intensity was 712 a.u.
For `CCTAACTACTATATCCATGTGAGATAGCTTCGTACAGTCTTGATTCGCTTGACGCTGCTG`, the fluorescence intensity was 584 a.u.
`CTAAAAGTTTTGAATAACACGTGCCTTTGATTTTTCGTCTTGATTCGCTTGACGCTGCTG` gave a fluorescence intensity of 10800 a.u.
`TGTACGAAGCTATGACACGAGGATATAGTAGTTAGGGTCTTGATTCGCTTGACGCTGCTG` gave a fluorescence intensity of 664 a.u.
